Assay results collected from several papers.
A part holds a random share of what one study measured.

Sample 1 — method: RNA Bind-n-Seq; form: RNA; matrix: in vitro; tested at: 365 nM; reference: no-protein control; direction: higher = stronger binding
Target: RNA binding protein fox-1 homolog 2, RRM domain, GST-SBP tag (RBFOX2, Homo sapiens, UniProt O43251-10, residues 100-194)
Notes: natural RNA segment, single round, ends assumed
Constant ends, left off below: GGGAGUUCUACAGUCCGACGAUC … UGGAAUUCUCGGGUGCCAA
Residues (chain): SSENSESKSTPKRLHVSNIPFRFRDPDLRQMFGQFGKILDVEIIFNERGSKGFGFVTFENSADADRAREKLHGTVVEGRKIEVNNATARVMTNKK
Sequence | RBNS enrichment (R)
GAGCAACUUACUUCCUUUCAUCUUACACAAUGAACCUUGUAAUUUAAUUAUGAUUUUCUCUUCAUACGAGCUGUUAGAAAGCUCAGCAUUAAAUUUGUGGCUCACCUCUA | 0.51
UAAAUCUAACCUGACUUAAACAUAUGCCUGUUUUUAUGUUUACCUAUAAUUUUCAUAUAGCCGUAUAAGGAUUGAUUUACCAUUUUUUGCCCAACAUGACAAUUCUGGCU | 3.75
AACAGAGCGCCAGGCUUCACUCUGCAGAGAGAAAGUGCUCUGUCCCUGUAGCGUCUGAUUCCACUUACCAGACACCCACGCAUCUGCAGGAUGUCUGAUGCAGAGCGGUU | 0.158
CUUCUGAGCUUGGAUUAGAGAAAGCUCUUAACUCCAGCCACUGUCAGAGGGAGUGUGGAGGGAGGGACCCGGCCUCUCUGUUGUCAAAUUGAGGCCUCCAUGUGGGAAGU | 0.618
GCCCUAUUUUACAAUUGUAAAACUGAGGCACGAGCAAAGUGAAGACACUGGCUCAUAUUCCUGCAGCCUGGAGGCCGGGUGCUCAGGGCUGACACGUCCACCCCAGUGCA | 1.62
AGAAACAGAACUUUUAAAACUAUAGGCUGCUGUGUUGGGGCCAGAAAUAAGGUGACAAGUAAAGACUUUUAUAAUACCUACCUUCAAAAUUAGAAUCAGCAGCACUGUAC | 0.565
CCUCCGAAUGCUAUUUGCUCCCAGGCCAGCACUGCACUGUCUGGAGGGGGCAGAGACCACAGGAGAGGUUCUUGCCUGCAUCCUCCCAUGAGGGUGUGGCCAGUUCCCUG | 0.574
UCCUCGCGGGAGGGGACUGCGCUGCUAUAGCUCUUGCUGCCUCUCUUGAAUAGCUCUAACUCCAAACCUCUGUCCACACCUCCAGAGCACCAAGUCCAGAUUUGUGUGUA | 0.506

Sample 2 — method: aptamer microarray, sandwich; form: DNA with 2'F-ANA; matrix: in vitro; tested at: 200 nM; added: Cy3 exosite-II aptamer, 400 nM; direction: higher = stronger binding; sequence: GGTTGGTGTGGTTGG
Target: Prothrombin, mature alpha-thrombin (F2, Homo sapiens, UniProt P00734)
Notes: whole 15-mer aptamer, many near background
Modification | mean fluorescence intensity [a.u.]
2'F-ANA at 4 9 10 12 14 | 85.2
2'F-ANA at 1 2 3 4 5 6 7 9 10 12 15 | 89.9
2'F-ANA at 1 2 3 5 6 8 9 10 12 13 | 50.2
2'F-ANA at 1 2 11 14 15 | 50.5
2'F-ANA at 1 7 9 10 12 13 14 15 | 69.2
2'F-ANA at 1 3 6 7 9 13 15 | 162
2'F-ANA at 1 3 4 5 6 7 8 10 11 12 13 15 | 52
2'F-ANA at 1 7 11 12 13 15 | 289
2'F-ANA at 1 2 3 6 10 12 14 | 55.3
2'F-ANA at 1 5 6 8 9 13 14 15 | 48.9
2'F-ANA at 2 4 5 6 9 10 11 12 13 15 | 57.9
2'F-ANA at 1 3 4 7 9 10 12 13 | 103
2'F-ANA at 1 2 3 4 5 6 7 9 11 | 57.2
2'F-ANA at 5 6 12 13 | 124
2'F-ANA at 1 2 3 4 7 8 9 10 11 15 | 65.6
2'F-ANA at 2 3 4 5 6 8 10 12 14 15 | 49.4
2'F-ANA at 3 4 7 9 10 13 14 | 214
2'F-ANA at 1 5 7 13 15 | 49.6
2'F-ANA at 2 4 5 6 8 13 | 55
2'F-ANA at 2 3 6 7 9 10 12 13 14 15 | 225
2'F-ANA at 1 2 3 4 5 6 8 9 14 15 | 48.5

Sample 3 — method: universal PBM; form: double-stranded DNA, one strand shown; matrix: in vitro; tested at: not given; direction: higher = stronger binding
Target: Sal-like protein 4, full length isoform B (SALL4, Homo sapiens, UniProt Q9UJQ4-2, residues 1-616)
Notes: 8-mer, flanks averaged, mean of replicates
Sequence | E-score
ATATGGTC | 0.215
ACGGCTGA | -0.14
CCACCCTC | -0.244
CCGATACG | -0.197
GAGAACCC | -0.163
CGTTGGCC | -0.264
ACCTGACG | -0.162
CCCGCTCC | -0.242
AACCCTAC | -0.115
AACCTGCC | -0.127
AATAAATC | 0.244
ATCACAGA | 0.0941
GCGGTGCA | -0.252
ACTACAGG | -0.0345
TACTTCGA | 0.195
CTCTCTAA | -0.123

Sample 4 — method: protein-binding microarray; form: double-stranded DNA, one strand shown; matrix: in vitro; tested at: 940 nM top; notes: 60-bp whole probe; added: salmon DNA 0.4 mg/ml; reference: random background probes; direction: higher = stronger binding; constant ends, left off below: GCCTAGCAC … GTCTTGATTCGCTTGACGCTGCTG
Target: Interferon regulatory factor 5, full length, phosphomimetic (IRF5, Homo sapiens, UniProt Q13568-2, residues 1-514, S451D/S453D/S456D/S462D)
Sequence | fitted relative affinity [z-score]
GACGGACTGGGCCTGGGGACGTGCTAG | -0.813
GACGGTCTCGGAATGGGGACGTGCTAG | 1.47
GACGGTATCCTACTCCTGACGTGCTAG | 0.154
TCCATTTTCTAAATGCCCTAGTGCTAG | 0.404
GACGGTTCCCTTTTACTGACGTGCTAG | 0.834
ATGAAGTTCTTTTTTTCAAGGTGCTAG | 0.732
TTAGATTTCGAGTTTCGATTAGTGCTA | 6.94
GACGGACTGGGGTATAGGGACGTGCTA | -0.068
TTAGATTTCAGACCGGATTAGTGCTAG | 0.351
TTAGGACTGGCCTATCGGTTAGTGCTA | -0.501
GACGGGCTGGGTCTCGGGACGTGCTAG | -0.207
GACGAACTAGGGTTTCGAGACGTGCTA | 0.587
GACGGTATCGACACTGGGGATGTGCTA | 3.98
GACGAACTGGGGACTGGAAACGTGCTA | 0.116
GACGGTTTTCTTTTCCTGACGTGCTAG | 1.51
GACGGTATCGGGTGTCGGGACGTGCTA | 4.96
ATGCCCCCCAAGAGGGGCGGGTGCTAG | -0.185
TCACCTCTCTTTCCAACACTGTGCTAG | 1.81
TTAGATTTCAGTAGCGATTAGTGCTAG | 0.591

Excerpt of the above (sample 2):
Modification | mean fluorescence intensity [a.u.]
2'F-ANA at 3 4 7 9 10 13 14 | 214
2'F-ANA at 1 2 3 4 5 6 7 9 10 12 15 | 89.9
2'F-ANA at 1 2 3 4 5 6 8 9 14 15 | 48.5
2'F-ANA at 1 5 7 13 15 | 49.6
